Published values pooled from the literature.
Compare with care: the assays were run in different laboratories. Values after ≈ are worked out from the molar mass of the structure shown.
Sequence of UniProt P11712 (whole entry, looked up): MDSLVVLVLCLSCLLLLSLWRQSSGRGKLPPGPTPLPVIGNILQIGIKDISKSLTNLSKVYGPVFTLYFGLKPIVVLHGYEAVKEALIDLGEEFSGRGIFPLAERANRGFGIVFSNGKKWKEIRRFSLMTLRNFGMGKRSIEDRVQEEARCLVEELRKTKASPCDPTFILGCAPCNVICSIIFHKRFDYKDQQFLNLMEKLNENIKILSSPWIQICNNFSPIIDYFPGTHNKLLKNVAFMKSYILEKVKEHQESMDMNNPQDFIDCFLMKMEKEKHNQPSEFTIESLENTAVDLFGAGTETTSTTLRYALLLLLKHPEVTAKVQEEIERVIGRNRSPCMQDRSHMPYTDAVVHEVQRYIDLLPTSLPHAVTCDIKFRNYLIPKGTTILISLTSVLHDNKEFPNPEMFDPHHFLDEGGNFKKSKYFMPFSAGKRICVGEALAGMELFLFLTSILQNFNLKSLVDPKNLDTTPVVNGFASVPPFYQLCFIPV
Sequence of UniProt P33261 (whole entry, looked up): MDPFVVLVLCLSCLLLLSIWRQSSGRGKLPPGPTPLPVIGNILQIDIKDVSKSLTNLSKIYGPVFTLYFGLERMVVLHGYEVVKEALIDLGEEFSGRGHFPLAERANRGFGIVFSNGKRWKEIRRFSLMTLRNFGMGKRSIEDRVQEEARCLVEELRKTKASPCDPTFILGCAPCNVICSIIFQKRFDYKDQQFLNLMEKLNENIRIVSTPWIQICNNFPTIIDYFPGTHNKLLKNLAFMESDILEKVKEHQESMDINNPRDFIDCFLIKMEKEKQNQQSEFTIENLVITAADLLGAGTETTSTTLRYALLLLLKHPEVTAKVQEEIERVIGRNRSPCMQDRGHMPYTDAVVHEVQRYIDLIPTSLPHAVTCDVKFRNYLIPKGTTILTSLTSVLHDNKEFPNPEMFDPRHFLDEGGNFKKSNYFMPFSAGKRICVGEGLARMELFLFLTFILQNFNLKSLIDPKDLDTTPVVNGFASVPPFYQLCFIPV
Sequence of UniProt O15244 (whole entry, looked up): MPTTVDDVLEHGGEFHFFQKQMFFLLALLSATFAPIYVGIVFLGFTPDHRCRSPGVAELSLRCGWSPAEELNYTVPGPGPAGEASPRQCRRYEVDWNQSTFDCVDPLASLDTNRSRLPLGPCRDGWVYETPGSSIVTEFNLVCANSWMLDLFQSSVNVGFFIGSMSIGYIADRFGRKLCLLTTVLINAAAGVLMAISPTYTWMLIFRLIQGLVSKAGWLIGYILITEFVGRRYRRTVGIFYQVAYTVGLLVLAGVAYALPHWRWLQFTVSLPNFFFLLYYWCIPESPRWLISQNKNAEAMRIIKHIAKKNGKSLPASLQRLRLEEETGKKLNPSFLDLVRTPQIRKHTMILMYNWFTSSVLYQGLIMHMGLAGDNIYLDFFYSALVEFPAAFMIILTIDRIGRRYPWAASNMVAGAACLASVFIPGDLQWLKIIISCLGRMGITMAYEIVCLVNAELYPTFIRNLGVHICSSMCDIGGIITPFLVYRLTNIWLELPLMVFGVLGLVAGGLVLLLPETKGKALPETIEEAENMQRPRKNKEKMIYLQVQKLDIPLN

CCn1ccc2c([C@](C)(O)c3cnc(C(F)(F)F)c(Cl)c3)n(C)nc2c1=O  kinetic solubility (nephelometry; aqueous buffer; 30 min, pH 6.5): 80 to 160 µM (≈ 32.1 to 64.1 µg/mL)
Nc1ccn([C@@H]2O[C@H](CO)[C@@H](O)C2(F)F)c(=O)n1  viability (HEK293; cell growth or viability, MTT; 5 µg/mL, 24 h): 31.8%
COc1cccc(-c2n[nH]c(SCc3ccccn3)n2)c1OC  concentration (male Sprague-Dawley rat, plasma; oral, 100 mg/kg, 30 min, single dose): 70700 ng/mL
O=C(c1ccc(F)cc1)C1CCN(CCn2c(=O)[nH]c3ccccc3c2=O)CC1  compound remaining (metabolic stability; rat, liver microsomes; 45 min): 15.5%
Nc1c(C(=O)Nc2ccc(C3=NCCN3)cc2)cccc1C(=O)Nc1ccc(C2=NCCN2)cc1  IC50 (K562; cell growth or viability): > 137 µM
Cc1noc(C)c1Cn1cc(N2C(=O)CN(Cc3cccc(O)c3)C2=O)cn1  concentration (male Sprague-Dawley rat, plasma; oral, 30 mg/kg, 15 min): 35.8 ng/mL
CCn1ccc2c([C@@](O)(CC)c3cnc(C(F)(F)F)c(Cl)c3)n(C)nc2c1=O  kinetic solubility (nephelometry; aqueous buffer; 30 min, pH 6.5): 40 to 80 µM (≈ 16.6 to 33.2 µg/mL)
Cc1ccc(N(C)c2ccc(NC(=O)CN(C)c3cc(F)ccc3N3CCCC3=O)cc2)cc1  CC50 (HepG2; cell growth or viability, ATP luminescence; 48 h): > 40 µM
COc1cccc(OC)c1-c1cc(C(=O)NC2(C(=O)O)C3CC4CC(C3)CC2C4)nn1-c1ccc(C(=O)N(C)CCCN(C)CCCN(C)C(=O)CN2CCN(CC(=O)[O-])CCN(CC(=O)[O-])CCN(CC(=O)[O-])CC2)cc1C(C)C.[177Lu+3] (stereo not drawn)  tracer uptake (HT-29 tumour model; host not given, stomach; 72 h, tumour-bearing): 0.037 %ID/g
CC[C@@](O)(c1cnc(C(F)(F)F)c(Cl)c1)c1c2cnn(C3CC3)c(=O)c2nn1C  kinetic solubility (nephelometry; aqueous buffer; 30 min, pH 6.5): 25 to 50 µM (≈ 10.7 to 21.4 µg/mL)
O=C(O)COc1cccc(-c2nc(Nc3ccc4[nH]ncc4c3)c3ccccc3n2)c1  IC50 (SLC22A2 (Homo sapiens, UniProt O15244); transporter uptake, inhibitor, radiometric): > 500 µM
Cc1cc(C)cc(NC(=O)Nc2ccc(N3CCCCC3)cc2)c1  IC50 (K562; cell growth or viability): 16.1 µM
NC(=O)C1CCN(C(=O)Cc2ccc(N(CCCO)Cc3cnc4nc(N)nc(N)c4n3)cc2)CC1  inhibition (CYP2C19 (Homo sapiens, UniProt P33261); enzyme activity, inhibitor, luciferase; 10 µM): -15.4%
Cn1nc2c(=O)n(C3CC3)cnc2c1[C@](O)(c1cnc(C(F)(F)F)c(Cl)c1)C1CC1  kinetic solubility (nephelometry; aqueous buffer; 30 min, pH 6.5): 80 to 160 µM (≈ 35.2 to 70.4 µg/mL)
Cc1ccc(C(O)c2ccc(NC(=O)CN(C)c3ccccc3N3CCCC3=O)cc2)cc1 (stereo not drawn)  CC50 (HepG2; cell growth or viability, ATP luminescence; 48 h): > 40 µM
CCn1cc(Cl)c2c(Cc3ccc(N4CCOCC4)nc3)n(C)nc2c1=O  kinetic solubility (nephelometry; aqueous buffer; 30 min, pH 6.5): 65 to 130 µM (≈ 25.2 to 50.4 µg/mL)
O=C(Nc1c2c(cc3c1CCC3)CCC2)NS(=O)(=O)/C=C/c1nccs1  inhibition (Cytochrome P450 2C9 (CYP2C9, Homo sapiens, UniProt P11712); enzyme activity, inhibitor; human, liver microsomes; 10 µM, pH 7.4): 52.8%
CCn1cc(C2CC2)c2c(CN3CCC4(CCC4)CC3)n(C)nc2c1=O  kinetic solubility (nephelometry; aqueous buffer; 30 min, pH 6.5): 80 to 160 µM (≈ 28.4 to 56.7 µg/mL)
CC(=O)c1nn(-c2ccc(C)cc2)/c(=N/N=C(\C)c2ccc(NC(=O)c3ccccc3)cc2)s1  viability (WI-38; cell growth or viability, MTS; 78 nM, 24 h): 91.8%
CCn1cc(C)c2c([C@H](O)c3ccc(C(F)(F)F)nc3)n(C)nc2c1=O  kinetic solubility (nephelometry; aqueous buffer; 30 min, pH 6.5): 160 to 320 µM (≈ 58.6 to 117 µg/mL)
COc1ccc2c(=O)n(C)c(-c3ccccc3)nc2c1  concentration (male Sprague-Dawley rat, plasma; oral, 30 mg/kg, 15 min): 13.5 ng/mL
